Experimental data of several laboratories.
Lines come from different studies, so protocols differ. ± gives the spread as reported.
ppa: Inorganic pyrophosphatase (ppa, Escherichia coli, UniProt P0A7A9)
UniProt P0A7A9, sequence (whole entry, looked up): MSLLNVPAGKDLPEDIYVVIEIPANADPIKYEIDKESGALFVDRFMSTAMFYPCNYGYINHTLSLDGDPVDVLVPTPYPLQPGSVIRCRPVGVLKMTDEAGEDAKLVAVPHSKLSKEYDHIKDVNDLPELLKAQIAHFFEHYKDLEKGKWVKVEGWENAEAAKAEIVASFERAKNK
MAP3K21: Mitogen-activated protein kinase kinase kinase 21 (MAP3K21, Homo sapiens, UniProt Q5TCX8)
UniProt Q5TCX8, sequence (whole entry, looked up): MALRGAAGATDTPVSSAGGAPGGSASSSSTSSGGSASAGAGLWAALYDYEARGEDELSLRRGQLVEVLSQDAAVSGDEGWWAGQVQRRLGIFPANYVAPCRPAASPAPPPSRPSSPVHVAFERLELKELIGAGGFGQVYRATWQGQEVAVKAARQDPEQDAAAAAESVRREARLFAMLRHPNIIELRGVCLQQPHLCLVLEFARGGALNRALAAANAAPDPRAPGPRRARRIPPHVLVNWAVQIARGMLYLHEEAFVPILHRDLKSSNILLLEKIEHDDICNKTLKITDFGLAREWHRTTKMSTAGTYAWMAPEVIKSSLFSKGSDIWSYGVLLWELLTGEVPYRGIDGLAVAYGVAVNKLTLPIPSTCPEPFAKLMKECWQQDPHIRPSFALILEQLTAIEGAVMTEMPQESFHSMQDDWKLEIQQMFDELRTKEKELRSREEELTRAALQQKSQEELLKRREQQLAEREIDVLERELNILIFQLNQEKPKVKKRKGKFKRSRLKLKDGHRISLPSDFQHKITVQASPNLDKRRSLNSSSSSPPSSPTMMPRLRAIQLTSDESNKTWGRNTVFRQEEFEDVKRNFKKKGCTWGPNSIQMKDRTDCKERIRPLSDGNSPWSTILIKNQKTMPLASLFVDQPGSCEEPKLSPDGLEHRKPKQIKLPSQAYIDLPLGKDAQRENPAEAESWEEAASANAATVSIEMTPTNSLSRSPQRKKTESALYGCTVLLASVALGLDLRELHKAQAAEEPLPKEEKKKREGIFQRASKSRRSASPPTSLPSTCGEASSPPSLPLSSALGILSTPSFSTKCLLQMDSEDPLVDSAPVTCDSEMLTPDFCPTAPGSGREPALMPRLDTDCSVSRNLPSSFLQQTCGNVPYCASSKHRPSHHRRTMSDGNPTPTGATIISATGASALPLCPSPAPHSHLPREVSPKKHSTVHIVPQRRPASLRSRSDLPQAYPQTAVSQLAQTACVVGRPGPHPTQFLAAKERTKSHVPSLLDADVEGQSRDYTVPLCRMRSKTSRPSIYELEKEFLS
TACR3: Neuromedin-K receptor (TACR3, Homo sapiens, UniProt P29371)
UniProt P29371, sequence (whole entry, looked up): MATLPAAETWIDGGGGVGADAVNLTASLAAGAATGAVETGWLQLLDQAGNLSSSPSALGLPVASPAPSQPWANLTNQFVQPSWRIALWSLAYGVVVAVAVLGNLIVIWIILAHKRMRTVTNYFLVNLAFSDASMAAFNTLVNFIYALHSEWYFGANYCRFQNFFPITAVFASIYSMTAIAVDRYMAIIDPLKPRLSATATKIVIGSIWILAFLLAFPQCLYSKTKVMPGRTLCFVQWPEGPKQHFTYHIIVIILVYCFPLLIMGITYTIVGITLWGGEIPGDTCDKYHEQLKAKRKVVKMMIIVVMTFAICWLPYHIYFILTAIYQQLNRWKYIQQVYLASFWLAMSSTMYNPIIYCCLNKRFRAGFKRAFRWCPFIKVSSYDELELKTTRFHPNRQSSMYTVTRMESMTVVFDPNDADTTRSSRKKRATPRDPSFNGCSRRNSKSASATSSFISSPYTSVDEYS
CHRM5: Muscarinic acetylcholine receptor M5 (CHRM5, Homo sapiens, UniProt P08912)
UniProt P08912, sequence (whole entry, looked up): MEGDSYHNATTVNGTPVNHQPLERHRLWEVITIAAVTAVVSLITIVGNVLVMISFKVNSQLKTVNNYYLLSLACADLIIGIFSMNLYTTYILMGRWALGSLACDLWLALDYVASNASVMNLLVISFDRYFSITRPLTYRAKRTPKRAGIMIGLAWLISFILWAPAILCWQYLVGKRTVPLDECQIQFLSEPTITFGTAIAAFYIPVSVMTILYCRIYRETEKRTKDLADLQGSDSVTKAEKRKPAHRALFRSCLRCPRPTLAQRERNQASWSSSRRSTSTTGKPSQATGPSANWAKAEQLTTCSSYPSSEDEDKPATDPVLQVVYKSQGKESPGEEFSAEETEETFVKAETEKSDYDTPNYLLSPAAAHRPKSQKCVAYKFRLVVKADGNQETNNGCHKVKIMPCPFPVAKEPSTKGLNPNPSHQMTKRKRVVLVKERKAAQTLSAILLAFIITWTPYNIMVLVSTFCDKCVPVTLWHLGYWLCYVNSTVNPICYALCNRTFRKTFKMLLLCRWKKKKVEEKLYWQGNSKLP
TDP1: Tyrosyl-DNA phosphodiesterase 1 (TDP1, Homo sapiens, UniProt Q9NUW8)
UniProt Q9NUW8, sequence (whole entry, looked up): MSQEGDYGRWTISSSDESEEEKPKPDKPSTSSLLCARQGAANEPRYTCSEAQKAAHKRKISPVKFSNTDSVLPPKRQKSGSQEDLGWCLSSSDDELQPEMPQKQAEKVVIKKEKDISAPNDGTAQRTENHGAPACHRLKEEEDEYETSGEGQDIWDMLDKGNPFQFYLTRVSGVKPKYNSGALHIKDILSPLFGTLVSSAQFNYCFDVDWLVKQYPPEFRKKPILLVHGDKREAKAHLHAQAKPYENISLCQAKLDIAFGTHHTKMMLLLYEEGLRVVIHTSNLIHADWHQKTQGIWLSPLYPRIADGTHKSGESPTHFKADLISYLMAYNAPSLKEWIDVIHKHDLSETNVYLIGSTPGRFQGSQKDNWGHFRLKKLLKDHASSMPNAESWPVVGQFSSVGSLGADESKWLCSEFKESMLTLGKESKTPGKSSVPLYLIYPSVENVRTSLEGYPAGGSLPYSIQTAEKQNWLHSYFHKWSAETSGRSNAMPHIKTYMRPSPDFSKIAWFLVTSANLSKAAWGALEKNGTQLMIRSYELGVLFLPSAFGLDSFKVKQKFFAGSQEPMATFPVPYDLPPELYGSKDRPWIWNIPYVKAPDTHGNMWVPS
OfChi-h: Chitinase (OfChi-h, Ostrinia furnacalis, UniProt Q4AE59)
Uncharacterized protein: Uncharacterized protein (Trypanosoma brucei brucei, UniProt Q386Q8)
UniProt Q9Y210, sequence (whole entry, looked up): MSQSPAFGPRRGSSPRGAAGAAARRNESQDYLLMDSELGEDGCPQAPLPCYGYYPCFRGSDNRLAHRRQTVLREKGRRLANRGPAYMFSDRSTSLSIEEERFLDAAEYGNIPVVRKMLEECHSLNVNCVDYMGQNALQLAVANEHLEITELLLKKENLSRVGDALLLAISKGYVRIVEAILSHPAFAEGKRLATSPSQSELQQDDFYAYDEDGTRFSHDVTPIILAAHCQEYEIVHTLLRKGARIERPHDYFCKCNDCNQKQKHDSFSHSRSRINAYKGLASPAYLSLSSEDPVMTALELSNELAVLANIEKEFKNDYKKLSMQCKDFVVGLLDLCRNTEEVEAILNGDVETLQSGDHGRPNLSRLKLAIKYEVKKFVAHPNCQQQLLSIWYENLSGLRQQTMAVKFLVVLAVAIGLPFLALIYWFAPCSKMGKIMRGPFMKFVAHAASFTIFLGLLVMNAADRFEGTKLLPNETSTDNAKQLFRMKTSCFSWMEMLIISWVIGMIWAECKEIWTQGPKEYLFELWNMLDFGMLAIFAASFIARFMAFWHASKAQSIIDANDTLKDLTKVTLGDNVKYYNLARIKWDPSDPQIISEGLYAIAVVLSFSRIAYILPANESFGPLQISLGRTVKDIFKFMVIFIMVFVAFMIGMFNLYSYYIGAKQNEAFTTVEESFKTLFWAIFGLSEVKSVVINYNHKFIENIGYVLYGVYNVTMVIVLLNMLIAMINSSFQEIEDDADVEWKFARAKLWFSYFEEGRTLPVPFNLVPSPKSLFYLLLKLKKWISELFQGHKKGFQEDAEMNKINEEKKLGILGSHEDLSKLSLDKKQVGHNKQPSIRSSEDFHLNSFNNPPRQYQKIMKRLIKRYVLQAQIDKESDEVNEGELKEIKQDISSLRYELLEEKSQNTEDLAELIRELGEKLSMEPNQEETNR
UniProt Q5JUK3, sequence (whole entry, looked up): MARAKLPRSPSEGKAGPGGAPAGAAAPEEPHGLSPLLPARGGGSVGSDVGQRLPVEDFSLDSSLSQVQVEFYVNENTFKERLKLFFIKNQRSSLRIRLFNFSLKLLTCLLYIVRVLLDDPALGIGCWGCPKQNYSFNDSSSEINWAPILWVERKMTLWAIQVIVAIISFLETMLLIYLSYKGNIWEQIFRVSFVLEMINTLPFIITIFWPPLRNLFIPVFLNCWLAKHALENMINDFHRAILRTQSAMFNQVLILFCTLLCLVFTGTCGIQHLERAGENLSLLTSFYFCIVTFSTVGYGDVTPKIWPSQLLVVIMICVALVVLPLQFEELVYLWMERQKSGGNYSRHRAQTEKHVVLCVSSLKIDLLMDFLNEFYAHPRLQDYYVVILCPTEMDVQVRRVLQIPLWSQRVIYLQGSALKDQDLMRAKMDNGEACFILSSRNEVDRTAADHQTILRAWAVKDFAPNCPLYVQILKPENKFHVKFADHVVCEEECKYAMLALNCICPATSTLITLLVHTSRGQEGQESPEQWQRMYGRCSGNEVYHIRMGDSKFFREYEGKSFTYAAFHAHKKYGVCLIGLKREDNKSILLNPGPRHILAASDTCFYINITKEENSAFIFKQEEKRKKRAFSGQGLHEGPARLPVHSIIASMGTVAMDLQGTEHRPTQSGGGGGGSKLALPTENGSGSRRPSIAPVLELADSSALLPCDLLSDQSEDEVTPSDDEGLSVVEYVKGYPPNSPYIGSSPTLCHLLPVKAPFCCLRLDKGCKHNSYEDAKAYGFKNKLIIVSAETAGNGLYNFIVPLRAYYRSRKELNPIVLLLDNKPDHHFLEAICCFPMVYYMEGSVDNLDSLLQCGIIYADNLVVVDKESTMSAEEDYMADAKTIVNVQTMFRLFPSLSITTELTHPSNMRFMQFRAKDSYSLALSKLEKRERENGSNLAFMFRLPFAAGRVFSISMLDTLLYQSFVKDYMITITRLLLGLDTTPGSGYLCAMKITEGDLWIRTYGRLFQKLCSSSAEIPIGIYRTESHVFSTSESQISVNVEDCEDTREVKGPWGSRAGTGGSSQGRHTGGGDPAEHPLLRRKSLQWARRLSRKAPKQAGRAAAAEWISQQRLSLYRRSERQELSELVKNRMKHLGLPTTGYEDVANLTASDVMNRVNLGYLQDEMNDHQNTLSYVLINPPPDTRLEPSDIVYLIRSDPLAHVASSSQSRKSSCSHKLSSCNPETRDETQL

SMILES | target | assay | system | conditions | inhibition [%]
COc1ccc(Br)cc1C[N+](C)(C)CCCN1c2ccccc2CCc2ccc(Cl)cc21 | ppa | inhibitor, counter-screen, coupling enzyme alone |  | 30 µM | 53.5
CN1CCN(Cc2ccc(-c3ccc(CO[C@H]4CCC[C@@H]4NC(=O)c4cc(-c5cnn(C)c5)cnc4N)cc3)cc2)CC1 | MAP3K21 | enzyme activity, inhibitor |  | 0.1 µM | 0
O=C(CSc1nnc(-c2ccco2)c(-c2ccco2)n1)c1ccc(Br)cc1 | ppa | inhibitor, counter-screen, coupling enzyme alone |  | 30 µM | 2.6
COc1ccc(S(=O)(=O)N2CCc3ccccc3C2)cc1N1CCN(C(=O)c2ccc(F)cc2C(F)(F)F)CC1 | TACR3 | ligand displacement, radioligand |  | 1 µM | 1.5
COc1ccc(C(=O)Nc2c(-c3cccs3)nc3ccccn23)cc1 | CHRM5 | ligand displacement, radioligand |  | 10 µM | < 50
Cc1ccc(C=NOCc2ccc(-c3nc4cc(-c5ccccc5)ccn4c3Nc3ccc(C(=O)O)cc3)cc2)cc1[N+](=O)[O-] | TDP1 | enzyme activity, inhibitor |  | 100 µM, unpurified compound | 75.3
Oc1cccc(C2NCCc3cc(O)c(O)cc32)c1 (stereo not shown) | tyrosinase | enzyme activity, inhibitor |  | 100 µM, added: levodopa | -5.64 ± 2.37
Cn1c(-c2ccc(C=NOCc3ccc(-c4nc5cc(-c6ccccc6)ccn5c4Nc4ccc(C(=O)O)cc4)cc3)s2)nc2ccccc21 | TDP1 | enzyme activity, inhibitor |  | 100 µM, unpurified oxime | 96.9
CN(C)c1nc(NCc2ccc3ccccc3c2)c(/N=N/c2ccc(Cl)cc2)c(N(C)C)n1 | OfChi-h | enzyme activity, inhibitor, fluorescence |  | 1 µM | 88.1
C=CC(=O)N1Cc2nc(-c3cc(-c4cc(Cl)cnc4Cl)c(F)cc3F)n(-c3ccncn3)c2C1 | PI4K2B (Homo sapiens, UniProt Q8TCG2) | cell-free assay, inhibitor |  | 1 µM | -13.9
CN(C)c1nc(NCc2ccccc2F)c(/N=N/c2ccc(Cl)cc2)c(N(C)C)n1 | OfChi-h | enzyme activity, inhibitor, fluorescence |  | 1 µM | 91.1
CC(C)Cn1c(SCC(=O)N2CCc3ccccc3C2)nc2cc(Cl)ccc2c1=O | CHRM5 | ligand displacement, radioligand |  | 10 µM | -2
CN(Cc1ccc(/C=C/C(=O)NO)cc1)CC12CC3CC(CC(C3)C1)C2 | human 5-HT2C receptor | antagonist radioligand binding |  | 0.05 µM | -5
O=C(Nc1cccc(C(F)(F)F)c1)c1ccc2nc(N3C(=O)c4ccccc4C3=O)sc2c1 | KCNT1 (Homo sapiens, UniProt Q5JUK3) | ion current, inhibitor, patch clamp | HEK293 | 10 µM | > 40
COc1cc(C=NOCc2ccc(-c3nc4cc(-c5ccccc5)ccn4c3Nc3ccc(C(=O)O)cc3)cc2)cc(I)c1OC(C)=O | TDP1 | enzyme activity, inhibitor |  | 100 µM, unpurified compound | 68.5
C[Si](C)(C)C[C@@H](CN)CC(=O)O | TACR3 | ligand displacement, radioligand |  | 75 µM | -5
C[N+](C)(CCCN1c2ccccc2CCc2ccc(Cl)cc21)Cc1ccc2ccccc2c1 | ppa | inhibitor, counter-screen, coupling enzyme alone |  | 30 µM | 46.5
O=C(O)c1ccc(Nc2c(-c3ccc(CON=Cc4ccc(S(=O)(=O)c5ccc(Cl)cc5)cc4)cc3)nc3cc(-c4ccccc4)ccn23)cc1 (mixture of isomers) | TDP1 | enzyme activity, inhibitor |  | 100 µM, unpurified compound | 76.3
CN(C)C/C=C/C(=O)Nc1ccc2nc(NCCCCCN(C)C)nc(NCCCCCCN(C)C)c2c1 | PRMT8 (Homo sapiens, UniProt Q9NR22) | enzyme activity, inhibitor, radiometric |  | 50 µM | 87
CNc1sc(C(=O)c2ccc(OC)cc2)c(N)c1C#N | ppa | inhibitor, counter-screen, coupling enzyme alone |  | 30 µM | 37
COc1ccc2c(OC)ccc(C=NOCc3ccc(-c4nc5cc(-c6ccccc6)ccn5c4Nc4ccc(C(=O)O)cc4)cc3)c2c1 (mixture of isomers) | TDP1 | enzyme activity, inhibitor |  | 100 µM, unpurified compound | 18.4
C=CC(=O)Nc1cc(-c2nn(C3CCN(CCNC(=O)[C@H](C)CCC45CC6CC(CC(C6)C4)C5)CC3)c3ncnc(N)c23)ccc1Oc1ccccc1 | MAP3K21 | inhibitor, KiNativ profiling | biochemical | 2 µM | 0.8

SMILES | target | assay | system | conditions | inhibition [%]
COc1ncc2nc(C)n(Cc3ncc(S(N)(=O)=O)cc3F)c2c1-c1ccccc1 | PDE4D (Homo sapiens, UniProt Q08499) | enzyme activity, inhibitor |  | 10 µM, safety panel | -5.26
CC1=NN(c2ccccc2F)C(=O)/C1=N\Nc1ccc(S(N)(=O)=O)cc1 | bovine α-glucosidase | enzyme activity, inhibitor, glucose oxidase |  | 500 µg/mL, added: maltose | 45.7
CN(C)c1nc(NCc2ccccc2)c(/N=N/c2ccc(Cl)cc2)c(N(C)C)n1 | OfChi-h | enzyme activity, inhibitor, fluorescence |  | 1 µM | 70.1
O=C1c2sc(-c3ccc(N4CCC(CO)CC4)nc3F)nc2CCN1c1cccnc1 | central benzodiazepine receptor | radioligand binding |  | 1 µM, added: agonist radioligand | -2
O=C(O)c1ccc(Nc2c(-c3ccccc3)nc3ccc(CON=Cc4ccc(-c5cc(C(F)(F)F)ccn5)cc4)cn23)cc1 (mixture of isomers) | TDP1 | enzyme activity, inhibitor |  | 100 µM, unpurified compound | 32.2
Cc1[nH]nc2c1N=C(c1ccccc1Cl)c1cnc(N3CCOCC3)cc1N2 | IL1R1 (Homo sapiens, UniProt P14778) | cell-free assay |  | 10 µM | 5
Cc1c(C)c(C)c(C[N+]2(C)CCN(CCCN3c4ccccc4Sc4ccc(Cl)cc43)CC2)c(C)c1C | Uncharacterized protein | enzyme activity, inhibitor, coupled colorimetric |  | 30 µM, added: E. coli pyrophosphatase coupling | 45
CN1CC[C@@H](COc2cnc(C#N)cc2-c2ccn3nc(NC(=O)C4CC4)cc3c2)C1 | Tribbles homolog 2 (TRIB2, Homo sapiens, UniProt Q92519) | enzyme activity, inhibitor |  | 1 µM | 10
CC(C)(C)OC(=O)C[N+](C)(C)CCCN1c2ccccc2CCc2ccc(Cl)cc21 | Uncharacterized protein | enzyme activity, inhibitor, coupled colorimetric |  | 30 µM, added: E. coli pyrophosphatase coupling | 33.2
N#Cc1cccc(-n2cccc2C=NOCc2ccc3nc(-c4ccccc4)c(Nc4ccc(C(=O)O)cc4)n3c2)c1 | TDP1 | enzyme activity, inhibitor |  | 100 µM, unpurified compound | -3.2
Cc1nc2c(F)cc(-c3nc(Nc4ccc(CNC(=O)CCCCCCC(=O)NO)cc4)ncc3F)cc2n1C(C)C | Phosphatidylinositol 4,5-bisphosphate 3-kinase catalytic subunit alpha isoform, with p85 alpha (Pik3ca, Mus musculus, UniProt P42337, E545K) | enzyme activity |  | 1 µM, p110α(E545K)/p85α)(m mouse | 26
O=C1C(O)=C(O)C(=O)C(O)=C1O | Protein tyrosine phosphatase type IVA 3, with CNNM4 CBS domain (PTP4A3, Homo sapiens, UniProt O75365) | protein-protein interaction, HTRF |  | 10 µM | 91.6 ± 0.1
O=C1c2sc(-c3ccc(N4CCC(F)C4)nc3F)nc2CCN1c1cccnc1 (stereo not shown) | L-type Ca2+ channel, phenylalkylamine (verapamil) site | radioligand binding, BioPrint binding panel |  | 1 µM, added: antagonist radioligand | 0
COc1ccccc1C1NCCc2cc(O)c(O)cc21 (stereo not shown) | tyrosinase | enzyme activity, inhibitor |  | 100 µM, added: levodopa | 13.2 ± 1.13
CC(=O)Nc1sc2c(c1SC#N)CCCC2 | Uncharacterized protein | enzyme activity, inhibitor, coupled colorimetric |  | 30 µM, added: E. coli pyrophosphatase coupling | 41.6
Cc1cc(C=NOCc2ccc3nc(-c4ccccc4)c(Nc4ccc(C(=O)O)cc4)n3c2)c(C)n1-c1ccc(C(=O)O)cc1 | TDP1 | enzyme activity, inhibitor |  | 100 µM, unpurified compound | 73.5
COc1cc(-c2cn(C)c(=O)c3cnccc23)cc(OC)c1CN(C)C | Bromodomain-containing protein 4, BD1 (BRD4, Homo sapiens, UniProt O60885) |  |  | 1 µM | -2.09
COc1cc(-n2cc3cc(F)cc(C(N)=O)c3n2)cc(Cl)c1C1CC(O)(CCO)Cc2ccccc21 (stereo not shown) | Protein mono-ADP-ribosyltransferase PARP8 (Homo sapiens, UniProt Q8N3A8) | enzyme activity, inhibitor |  | 10 µM | 1.09
CC(=O)C1=C(c2ccc(OC(F)F)cc2)N(C(C)=O)n2cnnc2S1 | Uncharacterized protein | enzyme activity, inhibitor, coupled colorimetric |  | 30 µM, added: E. coli pyrophosphatase coupling | 38
CC1=NN(c2cccc(F)c2)C(=O)/C1=N\Nc1ccc(S(N)(=O)=O)cc1 | bovine α-glucosidase | enzyme activity, inhibitor, glucose oxidase |  | 200 µg/mL, added: maltose | 37.7
CC(=O)C12NC(C)(C)CC1(C)C(=O)C1=C2c2c(c3c4n2C(C)(C)CC2=C4C4(CC(C)(C)NC(C)(C4)C2=O)CC3(C)C)C(=O)C(C)(C)N1 (single isomer, unassigned; (-)) | TRPC6 (Homo sapiens, UniProt Q9Y210) | ion current, inhibitor, patch clamp | HEK-293T | 10 µM | 86.2

Excerpt of the above:
SMILES | target | assay | system | conditions | inhibition [%]
Cn1c(-c2ccc(C=NOCc3ccc(-c4nc5cc(-c6ccccc6)ccn5c4Nc4ccc(C(=O)O)cc4)cc3)s2)nc2ccccc21 | TDP1 | enzyme activity, inhibitor |  | 100 µM, unpurified oxime | 96.9
C[Si](C)(C)C[C@@H](CN)CC(=O)O | TACR3 | ligand displacement, radioligand |  | 75 µM | -5
Cc1ccc(C=NOCc2ccc(-c3nc4cc(-c5ccccc5)ccn4c3Nc3ccc(C(=O)O)cc3)cc2)cc1[N+](=O)[O-] | TDP1 | enzyme activity, inhibitor |  | 100 µM, unpurified compound | 75.3
